Measurements gathered from unrelated publications.
Several values in a cell are separate wells, animals, samples, runs or records.
Sequence of UniProt P19525 (whole entry, looked up): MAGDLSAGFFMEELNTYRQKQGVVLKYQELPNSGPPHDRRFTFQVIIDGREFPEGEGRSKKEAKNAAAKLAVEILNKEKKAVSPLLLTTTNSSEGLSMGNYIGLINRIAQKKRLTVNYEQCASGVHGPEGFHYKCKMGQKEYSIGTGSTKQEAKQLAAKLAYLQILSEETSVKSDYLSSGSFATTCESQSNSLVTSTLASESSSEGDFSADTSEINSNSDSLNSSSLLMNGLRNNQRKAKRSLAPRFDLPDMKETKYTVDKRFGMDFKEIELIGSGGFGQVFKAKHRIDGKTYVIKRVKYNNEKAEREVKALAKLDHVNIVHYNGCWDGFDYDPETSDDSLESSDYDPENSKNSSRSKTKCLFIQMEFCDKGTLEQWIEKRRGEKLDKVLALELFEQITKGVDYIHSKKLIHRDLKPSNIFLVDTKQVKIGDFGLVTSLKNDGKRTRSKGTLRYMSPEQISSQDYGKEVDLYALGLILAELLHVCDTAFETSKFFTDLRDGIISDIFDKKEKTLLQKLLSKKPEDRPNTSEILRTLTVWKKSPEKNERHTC

For `c1ccc(-c2nc3n(c2-c2ccc4cccnc4c2)CCC3)nc1`, the IC50 was 6.96 µM and 2.38 µM (Leishmania infantum; parasite growth; intracellular, amastigote).
`C[C@@H]1NC(=O)[C@@H](CCCNC(=N)N)NC(=O)[C@H]([C@@H](C)O)NC(=O)[C@@H](CCCN)NC(=O)[C@H](Cc2ccccc2)NC(=O)[C@@H](Cc2ccccc2)NC1=O` gave an IC50 of greater than 20 µM (Balamuthia mandrillaris; parasite growth, ATP luminescence; 72 h).
`CN(C)[C@@H]1C(O)=C(C(N)=O)C(=O)[C@@]2(O)C(O)=C3C(=O)c4c(O)c(NC(=O)CN5CCCC5)cc(F)c4C[C@H]3C[C@@H]12` has an IC50 of less than 1 µg/mL (Mycobacteroides abscessus; microbial growth, resazurin; ATCC19977).
`CO/N=C1\C[C@]2(C[C@@H]3C[C@@H](C/C=C(\C)C[C@@H](C)/C=C/C=C4\CO[C@@H]5[C@H](O)C(C)=C[C@@H](C(=O)O3)[C@]45O)O2)O[C@H](/C(C)=C/C(C)C)[C@H]1C` has an IC50 of 0.49 µM (Haemonchus contortus; parasite motility; 24 h, larva).
`CC(C)[C@H](N)C(=O)N[C@H](Cc1ccccc1)C(=O)N[C@@H](Cc1ccccc1)C(=O)N[C@H](CCCN)C(=O)N[C@H](C(=O)N[C@H](CCCNC(=N)N)C(=O)O)[C@@H](C)O` gave an IC50 of greater than 20 µM (Balamuthia mandrillaris; parasite growth, ATP luminescence; 72 h).
`Cc1ccc(C(=O)Nc2ccc(S(=O)(=O)O)c3cc(S(=O)(=O)O)cc(S(=O)(=O)O)c23)cc1NC(=O)c1cccc(NC(=O)Nc2cccc(C(=O)Nc3cc(C(=O)Nc4ccc(S(=O)(=O)O)c5cc(S(=O)(=O)O)cc(S(=O)(=O)O)c45)ccc3C)c2)c1` has an IC50 of roughly 0.05 µM (Trypanosoma brucei; parasite growth, resazurin; RHODESIENSE, human).
For `CCCCC(=O)Nc1ccc(-c2ccc3ncn(CCC)c(=O)c3c2)cn1`, the remaining binding was 90% (EIF2AK2 (Homo sapiens, UniProt P19525); binding, competition with immobilised ligand; 0.5 µM).
`CN(C)c1ccc(O)c2c1C[C@H]1C[C@H]3[C@H](N(C)C)C(O)=C(C(N)=O)C(=O)[C@@]3(O)C(O)=C1C2=O` gave an IC50 of 28.5 µg/mL (Mycobacteroides abscessus; microbial growth, resazurin; ATCC19977).
The IC50 of `COc1ccnc(-c2nc3ccccn3c2Nc2ccc(F)cc2)c1` is reported as 6.77 µM and 3.17 µM (Leishmania infantum; parasite growth; intracellular, amastigote).
The IC50 of `CC(C)[C@@H]1NC(=O)[C@@H](CCCNC(=N)N)NC(=O)[C@H]([C@@H](C)O)NC(=O)[C@@H](CCCN)NC(=O)[C@H](Cc2ccccc2)NC(=O)[C@@H](C)NC1=O` is reported as greater than 20 µM (Balamuthia mandrillaris; parasite growth, ATP luminescence; 72 h).
`CN(C)c1cc(NC(=O)Cc2ccccc2)c(O)c2c1C[C@H]1C[C@H]3[C@H](N(C)C)C(O)=C(C(N)=O)C(=O)[C@@]3(O)C(O)=C1C2=O` has an IC50 of 5.38 µg/mL (Mycobacteroides abscessus; microbial growth, resazurin; ATCC19977).
The IC50 of `CC(C)[C@@H]1NC(=O)[C@@H](Cc2c[nH]cn2)NC(=O)[C@H]([C@@H](C)O)NC(=O)[C@@H](CCCN)NC(=O)[C@H](Cc2ccccc2)NC(=O)[C@@H](Cc2ccccc2)NC1=O` is reported as 12.1 µM (Balamuthia mandrillaris; parasite growth, ATP luminescence).
`Cc1ccn2cc(-c3ccccn3)nc2c1` gave an IC50 of 20.2 µM and 10.1 µM (Leishmania infantum; parasite growth; intracellular, amastigote).

For quick reference, copied from above:
`CN(C)[C@@H]1C(O)=C(C(N)=O)C(=O)[C@@]2(O)C(O)=C3C(=O)c4c(O)c(NC(=O)CN5CCCC5)cc(F)c4C[C@H]3C[C@@H]12` has an IC50 of less than 1 µg/mL (Mycobacteroides abscessus; microbial growth, resazurin; ATCC19977).
The IC50 of `COc1ccnc(-c2nc3ccccn3c2Nc2ccc(F)cc2)c1` is reported as 6.77 µM and 3.17 µM (Leishmania infantum; parasite growth; intracellular, amastigote).
